Measured values gathered from unrelated publications.
Each line is one published result; not all experiments were run side by side. Numbers after ± are the reported error. Values after ≈ are worked out from the molar mass of the structure shown.

SMILES	assay	test system	conditions	how to read	quantity	value
CC(NC(=O)OC1OC(C(=O)O)C(O)C(O)C1O)c1cc(Cl)ccc1Cn1c(=S)[nH]c(=O)c2[nH]ccc21 (stereo not drawn)	equilibrium dialysis	human plasma	16 h, pH 7.4		recovery	> 84%
Cc1ccc(N2Cc3cc(NC(=O)N4CCN(c5ccc(F)cc5)CC4)ccc3C2=O)cc1		mouse C57BL/6, liver microsomes	90 min		remaining parent compound	87.3 ± 1.04%
[123I]c1ccc2nc(-c3ccc(-n4ccnn4)nc3)cn2c1		human, venous plasma	intravenous, 60 min		intact parent remaining	~10%
O=S(=O)(c1ccccc1)N1CCCCC1		phosphate-buffered saline	24 h, pH 6.5		recovery	100%
COc1ccc(Nc2nc(Nc3ccc(OCCOCC[18F])cc3)ncc2Br)cc1		ICR mice, S180 tumour	intravenous, 370 kBq, 30 min	reference: tumour over bone	uptake ratio	1.55
C=C(c1ncc(C(=O)O)cn1)c1cc2c(cc1C)C(C)(C)CCC2(C)C		Sprague-Dawley rat, male	oral, 100 mg/kg, 1 h, sesame oil vehicle		blood triglycerides	71 ± 29.6 mg/dL
COc1cc(C)c(Cc2ccc(O)cc2)cc1[C@@H]1S[C@H](CO)[C@@H](O)[C@H](O)[C@H]1O		Japanese T2DM patients, plasma	2.5 mg luseogliflozin, day 7, once daily	reference: compound over luseogliflozin	AUC(0-τ) ratio	0.14 ± 0.0244
Cc1ccc(OCC(=O)N(Cc2cccs2)c2ccn[nH]2)cc1		Sprague-Dawley rat, male, plasma	oral gavage, 100 mg/kg		dose-normalised AUC(0-last)	0.501 ng·h/mL/mg/kg
Fc1cc2nc3c4cccnc4c4ncccc4c3nc2cc1F.[Cl-].[Cl-].[Ru+2].c1ccncc1.c1ccncc1.c1ccncc1.c1ccncc1		red blood cells, rabbit	20 µM, 2 h, 37 °C		hemolysis	1.05 ± 0.04%
CC(=O)N([O-])CCCCCNC(=O)CCC(=O)N([O-])CCCCCNC(=O)CCC(=O)N([O-])CCCCCN.[89Zr+4]	radio-iTLC	aqueous buffer	1 h, pH 7.5, 37 °C, EDTA challenge, with: 100-fold excess EDTA		intact complex	96.6 ± 0.3%
C#CCO[C@H]1C[C@H]2[C@@H](C)C[C@H]3OC(=O)C(=C)[C@H]3C[C@]2(C)[C@H]1O	propidium iodide flow cytometry	primary splenocytes, BALB/c mouse	48 h, 10% fetal calf serum		CC50	55 ± 5.4 µg/mL (≈ 181 µM)
Cn1c(=O)oc2ccc(-c3ccc(CC(C#N)NC(=O)C4CNCCCO4)c(F)c3)cc21 (stereo not drawn)		human	oral, 40 mg once daily, TEAE, multiple ascending dose		monocyte count increased incidence	0%
CN(O)C(=O)CCC(=O)NCCCN(CCCCN(CCCNC(=O)CCC(=O)N(C)O)C(=O)CCC(=O)N(C)O)C(=O)CCC(=O)N(C)O.[89Zr]		mouse, kidney	1 h		tracer uptake	6.93 %ID/g
Cc1ccc(C(=O)N[C@@H](CO)CC(C)C)cc1C	LC-MS	human liver microsomes	10 µM of parent drug, 10 min, pH 7.4, with: NADPH	reference: parent drug at time zero	metabolite peak area	0.5%
O=[11C](OC(C(F)(F)F)C(F)(F)F)N1CCC(CNS(=O)(=O)c2ccc(Cl)cc2)CC1	PET	rhesus monkey, male, cerebellum	iv, 3.71 mCi		uptake	0.75 SUV
CCN(CC)CCN=S(=O)(c1ccccc1)N1CCCCC1 (stereo not drawn)		PBS	24 h, pH 7, hydrolytic stability		recovery	100%
CCC1CC2C(C)=CC3C(=O)CCCC3C=CC(C)=CC2C(=O)O1 (stereo not drawn)		ICR mouse male, plasma	intravenous, 2 mg/kg, 120 min		plasma concentration	4.1 ± 6.5 ng/mL
CCCC[C@H](NC(=O)CNC(=O)CNC(=O)CN1CCN(CC(=O)O)CCN(CC(=O)O)CC1)C(=O)N[C@H]1CC(=O)NCCCC[C@@H](C(N)=O)NC(=O)[C@H](Cc2c[nH]c3ccccc23)NC(=O)[C@H](CCCNC(=N)N)NC(=O)[C@@H](Cc2ccccc2)NC(=O)[C@H](Cc2c[nH]cn2)NC1=O [gallium-67 labelled]		C57 mice, female, B16/F1 melanoma, urine	intravenous, 0.037 MBq, 2 h		urinary excretion	84 ± 5.71%
CC(C)[C@H](NC(=O)CNC(=O)[C@H](CCC(N)=O)NC(=O)[C@H](C)N)C(=O)O		human	30 mg/kg single dose, LOQ 0.5 ng/mL		time to concentration below LOQ	120 min
C=C(c1ccc(C(=O)O)c(F)c1)c1cc2c(cc1C)C(C)(C)C=CC2(C)C		Sprague-Dawley rat, male	oral, 100 mg/kg, 24 h, sesame oil vehicle		blood triglycerides	1590 mg/dL
Oc1ccc(F)cc1-c1nc2c(Cl)cc(Cl)cc2[nH]1		defibrinated sheep blood	400 µM	reference: 1% Triton X-100	hemolysis	< 50%

SMILES	assay	test system	conditions	how to read	quantity	value
CC(C)(Sc1ccncc1-c1ccc(C#N)c2ccccc12)C(=O)OC1OC(C(=O)O)C(O)C(O)C1O (stereo not drawn)		urine	oral, 15 mg, moderate renal impairment	reference: normal renal function	renal clearance decrease	60%
O=C(CCCCC[N+]#[C][99Tc-5]([C]#[N+]CCCCCC(=O)N[C@H]1C(O)O[C@H](CO)[C@@H](O)[C@@H]1O)([C]#[N+]CCCCCC(=O)N[C@H]1C(O)O[C@H](CO)[C@@H](O)[C@@H]1O)([C]#[N+]CCCCCC(=O)N[C@H]1C(O)O[C@H](CO)[C@@H](O)[C@@H]1O)([C]#[N+]CCCCCC(=O)N[C@H]1C(O)O[C@H](CO)[C@@H](O)[C@@H]1O)[C]#[N+]CCCCCC(=O)N[C@H]1C(O)O[C@H](CO)[C@@H](O)[C@@H]1O)N[C@H]1C(O)O[C@H](CO)[C@@H](O)[C@@H]1O (stereo partly drawn)	biodistribution	BALB/c nude mouse TE-1 xenograft		reference: kidney over tumour	kidney/tumour ratio	1.97
O=c1c2ccccc2[se]n1CCCCCCn1[se]c2ccccc2c1=O		20% Soluplus in water	24 h, 25 °C, 200 mg/mL		solubility	883 ± 25 µg/mL (≈ 1850 µM)
CCC(=O)N(C)c1ccc(Cl)c(Cl)c1		mouse liver S9 CD1 male cofactor-fortified	10 µM, 1 h, pH 7.4	reference: boiled S9	turnover	14.3%
CC(=O)[CH](C(C)=O)[Pt-2]1([S+](C)C)[O]C(C)=CC(C)=[O+]1 (stereo not drawn)		rat, blood	intravenous, 10 mg/kg, single dose		creatinine	0.42 ± 0.03 mg/dL
CC1=CC(C)=[N+]2C1=Cc1ccc(CCC(=O)N3CCN(C(=O)c4cc(Cc5n[nH]c(=O)c6ccccc56)ccc4F)CC3)n1[B-]2(F)F		athymic nude NU/J mouse, whole blood	intravenous, 2.5 mg/kg		alpha half-life	1.2 min
COc1cc(NC(C)=O)c2c(c1O)-c1c(OC)c(OC)cc3c1C(C2)N(C)CC3 (stereo not drawn)		rat liver homogenate	0.5 µg/mL, 40 d, -20 °C, long-term storage		remaining compound	108 ± 3.8%
Cc1cc(O)cc(O)c1C(=O)c1c2c3c(c(O)cc(C)c3oc1=O)C(=O)c1c(O)cc(O)cc1-2		KM mouse male, plasma	intraperitoneal, 30 mg/kg		lag time	2.87 min
O=C(Nc1nccs1)C(c1cc(F)ccc1O)N1Cc2ccccc2C1=O (stereo not drawn)		mouse plasma	6 ng/mL, time not given, -30 °C, 3 freeze-thaw cycles, low QC		recovery	107 ± 3.3%
NCCCC[C@H](NC(=O)[C@@H]1CCCN1C(=O)[C@@H]1CSSC[C@H](NC(=O)CNC(=O)CNC(=O)CN)C(=O)N[C@@H](Cc2ccc(O)cc2)C(=O)N[C@@H](Cc2ccccc2)C(=O)N[C@@H](CCC(N)=O)C(=O)N[C@@H](CC(N)=O)C(=O)N1)C(=O)NCC(N)=O		male Sprague Dawley rats	iv, single dose		NOAEL	0.05 mg/kg
COC(=O)/C=C/C(=O)c1ccc(OC)cc1	LC-MS/MS	processed rat plasma, autosampler	2.5 ng/mL, 12 h, 4 °C, post-preparative		recovery	99.2 ± 4.48%
Cc1ccccc1/N=N/c1ccc(/N=N/c2c(O)ccc3ccccc23)c(C)c1		Sprague-Dawley rats both sexes, whole blood	oral, 50 mg/kg		elimination half-life	2.36 h
CN1CCC[C@]1(C)/C=C/S(=O)(=O)NC(=O)Nc1c2c(cc3c1CCC3)CCC2		human, plasma	oral, 50 mg twice daily, day 1, multiple ascending dose		AUC(0-24)	65500 ng·h/mL
CC12CC(c3ccc(S(C)(=O)=O)cc3)C3=C4CCC(=O)C=C4CCC3C1CCC2(O)C(F)(F)C(F)(F)F (stereo not drawn)		human, plasma	oral, 4 mg, geometric mean, with: itraconazole 200 mg/day		AUC0-tlast	2000 ng·h/mL
COC1C=COC2(C)Oc3c(C)c(O)c4c(c3C2=O)C2=NC3(CCN(CC(C)C)CC3)NC2=C(NC(=O)C(C)=CC=CC(C)C(O)C(C)C(O)C(C)C(OC(=O)c2cncnc2)C1C)C4=O (stereo not drawn)		female CD-1 mouse, plasma	oral, 10 mg/kg		bioavailability	79.9%
O=C([O-])CN1CCN(CC(=O)[O-])CCN(C(CCC(=O)NC(Cc2c[nH]c3ccc(O)cc23)C(=O)NCCc2c[nH]c3ccc(O)cc23)C(=O)O)CCN(CC(=O)[O-])CC1.[Gd+3] (stereo not drawn)		PBS	40 °C, 0.47 T		relaxivity r1	5.6 mM⁻¹ s⁻¹
CC(OC1OC(C(=O)O)C(O)C(O)C1O)c1nc(-c2ccc3c(c2)CCC3NC(=O)c2cnn(C)c2)no1 (stereo not drawn)		human, pooled urine	oral, 20 mg	reference: dose	radioactive dose excreted in urine	0.885%
COc1ccc2cc(-c3ccc(-c4ccc(C)cn4)nc3)oc2c1		benzene	with: quinine bisulfate reference		fluorescence quantum yield	0.75
O=C1C[C@@H](c2ccc(O)cc2)Oc2cc(O)ccc21		human, both sexes	oral, 12 capsules		renal clearance	0.35 to 1 mL/min/kg
C#CCOc1ccc(/C=C2\SC(=O)N(CC(=O)NCc3ccccc3)C2=O)cc1	inverse Kirkwood-Buff integrals	binary solvent mixture	298.15 K, mole fraction x1 0.10		Kirkwood-Buff integral G1,3	-387 cm³/mol
NCC(=O)N1CCC[C@H]1C(=O)N1C[C@H](O)C[C@H]1C(=O)O	potentiometric titration		40 °C, MA complex, with: Fe(III)		log beta	17.6
